Measurements gathered from unrelated publications.
Each numbered part is a random draw from the data of one study; scales do not carry over between parts.

Series 1 — technique: protein-binding microarray; form: double-stranded DNA, one strand shown; medium: in vitro; concentration: 940 nM top; notes: 60-bp whole probe; added: salmon DNA 0.4 mg/ml; baseline: random background probes; direction: higher = stronger binding; all sequences stand within: GCCTAGCAC … GTCTTGATTCGCTTGACGCTGCTG
Target: Interferon regulatory factor 5, full length, phosphomimetic (IRF5, Homo sapiens, UniProt Q13568-2, residues 1-514, S451D/S453D/S456D/S462D)
Sequence	fitted relative affinity [z-score]
ATTGTCTTCCCCATCTTGTTGTGCTAG	1.55
TTAGAACTGAGTATTGATTAGTGCTAG	0.198
GACGAACTGAGTACCGAGACGTGCTAG	-0.105
TCCAACCTGCTGAATCAAAAGTGCTAG	-0.00749
GACGGTCTCGGCCTCGGGACGTGCTAG	1.07
TTAGGTCTCGGACTGGGTTGGTGCTAG	0.769
TTATAACTGGGGTATCGATTAGTGCTA	3.33
TTAGGTTTCGGGTTTCCGTTAGTGCTA	10.2
ATCCCATTAAATTTTAATAAGTGCTAG	-0.0271
TCAACTTTGACTTAAGAACTGTGCTAG	0.0856
TTAAGACTGGGACTGGGTTAGTGCTAG	-0.567
TTAGGTATCGACTATGGGTTAGTGCTA	5.91
GTGTTTCTCAACCATTTTGTTGTGCTA	1.41
TTAGAACTGGGACTGGGTTAGTGCTAG	-0.649
GTCGGTTTCGGACTGGGGACGTGCTAG	7.91
GACGATTCCAGTTTCGAGAGGTGCTAG	3.95
TCAGGTATCGGTATCGGTTAGTGCTAG	10.4
TCACTTGTGTTTATTGTACTGTGCTAG	0.384
TTAGGTATCGGGACTGGATTAGTGCTA	4.03

Series 2 — technique: protein binding microarray; form: double-stranded DNA, one strand shown; medium: in vitro; concentration: not given; baseline: not given; direction: higher = stronger binding
Target: Histone acetyltransferase KAT6A, both winged helices, GST fusion (KAT6A, Homo sapiens, UniProt Q92794, residues 1-181)
Notes: 8-mer, flanks averaged, mean of 2 arrays, mostly near background
Target sequence (chain): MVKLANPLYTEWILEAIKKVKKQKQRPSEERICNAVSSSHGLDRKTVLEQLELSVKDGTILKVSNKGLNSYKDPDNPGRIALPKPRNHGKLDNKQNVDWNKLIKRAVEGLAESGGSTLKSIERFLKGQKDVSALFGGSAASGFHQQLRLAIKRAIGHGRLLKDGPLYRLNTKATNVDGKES
Sequence	E-score
CTTGTCAA	0.153
CTTAGAGC	-0.0503
AGGAGTCA	-0.247
AGGTTCGC	0.0655
AGCGCTTC	0.293
ATAATTCC	-0.0802
CAACCGCG	0.302
CCGCCACC	0.103
CCAGGCGG	0.111
ATCGGATC	0.0902
CAAAGGAC	-0.103
CCCAGTCC	-0.229
ATCATCCA	-0.247
AGACATCC	-0.0692
GCAGTGCC	-0.0314
TGCCGGCA	0.356
CTCTGCAC	-0.0811
ACCACTCT	-0.196
AGGATCTA	-0.17
ATTACAGA	-0.0533
ATTACTAA	-0.0279
AGCCGCTG	0.286

Series 3 — technique: protein-binding microarray; form: double-stranded DNA, one strand shown; medium: in vitro; concentration: 0.8 µM; notes: whole 60-bp probe, no competitor; direction: higher = stronger binding
Target: Centromere-binding protein 1, full length, N-terminal tag (CBF1, Saccharomyces cerevisiae, UniProt P17106, residues 1-351)
Sequence of UniProt P17106 (whole entry, looked up): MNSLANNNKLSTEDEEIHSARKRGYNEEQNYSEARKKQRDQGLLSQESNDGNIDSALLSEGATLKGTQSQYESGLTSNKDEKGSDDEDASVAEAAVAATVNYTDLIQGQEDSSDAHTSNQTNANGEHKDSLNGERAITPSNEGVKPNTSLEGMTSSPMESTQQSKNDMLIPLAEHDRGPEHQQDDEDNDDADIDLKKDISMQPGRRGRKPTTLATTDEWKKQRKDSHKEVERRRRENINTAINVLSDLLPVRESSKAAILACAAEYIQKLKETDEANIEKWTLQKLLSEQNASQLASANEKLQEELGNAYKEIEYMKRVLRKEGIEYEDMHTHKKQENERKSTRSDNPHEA
Sequence	fluorescence intensity [a.u.]
GAACTCTTCAATCCTAACATCAGTAATGCTTTTTAGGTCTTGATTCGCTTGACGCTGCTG	536
GAACCTCTTGCTGTCCACATGTGTTGAGTGTCATAGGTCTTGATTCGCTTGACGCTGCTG	782
CTATCATTCTTCTCTGATGCACGTTCTTTAGACTTCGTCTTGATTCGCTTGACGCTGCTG	808
GAATTCCGAGATCATCACGGGATTTGTCACGCATAGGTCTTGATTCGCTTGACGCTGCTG	1630
GAAGGTAGTGGCGGTGGTGGTGGCGGCATCCCTTAGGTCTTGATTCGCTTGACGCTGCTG	493
GAAAAAAGTTCAAAACATGTGGAACGGGTAACATAGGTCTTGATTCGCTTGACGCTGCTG	576
GAATGTACGTAAGATCACATGATCGTATACTGTTAGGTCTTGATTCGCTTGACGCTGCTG	7010
CTAATTTAGCAGTAAGCCGTGACTTGTCTAGCCTTCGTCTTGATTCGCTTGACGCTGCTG	615
CTATGAAAAAAGATGAACGTGTGAATGAAAAAATTCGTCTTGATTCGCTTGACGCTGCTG	643
CTAATATATGAGGAATACGGGTCACCACACTAATTCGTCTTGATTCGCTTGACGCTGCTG	673
CCTAACTACTATAGTCACATGCGATAGCTTCGTACAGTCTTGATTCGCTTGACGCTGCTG	2190
CTACCTTGTAAATTTCACATGCTCGACCGTTTATTCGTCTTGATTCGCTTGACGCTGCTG	605
CTAATGTCAAAAAATCTCGTGAGGCCTCCGGAATTCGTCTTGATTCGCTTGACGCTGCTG	537
CTAACCTTTGTGATTCACGCTGTCCTCGTGAAATTCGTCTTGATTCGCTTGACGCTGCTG	645
GAATACCTGTTAAATATCGTGAAATTGTGCTGCTAGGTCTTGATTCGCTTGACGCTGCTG	530
CTACTCGCAGACCATGTGACCGCCGGTACTCCTTTCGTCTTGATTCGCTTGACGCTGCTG	7080
CTAGCGTGGGGTTCCCACGAGCGGCAGGAACCGTTCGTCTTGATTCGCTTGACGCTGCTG	512
CTAAAAAAGAGCACCCTCATGATTTCTTGCTCTTTCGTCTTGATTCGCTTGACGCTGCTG	513
GAAAATACATCTGTGGTCATTTAGCTACTGCAGTAGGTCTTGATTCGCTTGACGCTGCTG	520

Series 4 — technique: DNA-protein interaction ELISA; form: double-stranded DNA, one strand shown; medium: in vitro, bacterial lysate; concentration: not given; notes: whole dsDNA probe, crude lysate protein; baseline: highest signal in screen; direction: higher = stronger binding
Target: Probable WRKY transcription factor 50, DNA-binding domain (WRKY50, Arabidopsis thaliana, UniProt Q8VWQ5, residues 99-173)
Residues (chain): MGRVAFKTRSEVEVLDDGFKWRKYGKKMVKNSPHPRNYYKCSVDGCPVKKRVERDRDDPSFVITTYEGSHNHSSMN
Sequence	relative absorbance
AAAAAAGGCCGTTGGACCTCGGTCTAAAAA	17.9 % of maximum
AAAAAAATCAGCCTGACTCTGGGCGTAAAA	49.1 % of maximum
AAAAAACTCGACATAGAATGCGGAAAAAAA	28.3 % of maximum
AAAAAAACGATACGGTATCTAGAAAA	18.7 % of maximum
AAAAAAAATCTTAGCTCTATCTCATCAAAA	28.5 % of maximum
AAAAAATCTATTCCATTTCGCCTTCTAAAA	22.3 % of maximum
AAAAAAGTTTCTGCTTTCCCTTTCGTAAAA	51.1 % of maximum
AAAAAAAGTCTGCGGCTGCAGGGCGGAAAA	41.8 % of maximum
AAAAAATGTTTTTTAGAGGTGTGCAAAAAA	17.1 % of maximum
AAAAAAAACTCCCATACTACAACCGAAAAA	20.4 % of maximum
AAAAAATTAGCTTATCCTTGCTTGTGAAAA	14.4 % of maximum
AAAAAATGGTACTCAGAGTTATAGACAAAA	25.1 % of maximum
AAAAAATGCTATCCGTGTCTATGCCAAAAA	18.2 % of maximum
AAAAAAACTCAACTAGTGAACCACCAAAA	18.3 % of maximum
AAAAAAAAAAAAAAAAAAAAAAAAAAAAAA	12.7 % of maximum
AAAAAAGGTGAGGAAGTTGGGTATGGAAAA	16.6 % of maximum
AAAAAATCGCGTCCGTGCTCAATCCAAAAA	22.2 % of maximum
AAAAAACCGATCATCACATATCACTGAAAA	13.4 % of maximum
AAAAAATCAACCATTATGGTATTACTAAAA	28.5 % of maximum
AAAAAATCCTATCTTGGCTTTGGCCTAAAA	39.8 % of maximum
AAAAAAATATTTGAGCTAGGTTATCAAAAA	21.8 % of maximum
AAAAAAGTCCCGCGCTAAGCTTTAAAAAAA	55.4 % of maximum

Excerpt of the above (series 1):
Sequence	fitted relative affinity [z-score]
TCAACTTTGACTTAAGAACTGTGCTAG	0.0856
TTAAGACTGGGACTGGGTTAGTGCTAG	-0.567
TTAGGTATCGACTATGGGTTAGTGCTA	5.91
GTGTTTCTCAACCATTTTGTTGTGCTA	1.41
TTAGAACTGGGACTGGGTTAGTGCTAG	-0.649
GTCGGTTTCGGACTGGGGACGTGCTAG	7.91
